Published values collected from several papers.
Every numbered part comes from another study and shows a few of its results, in no order.

Set 1
Target: Protein C-ets-1 (ETS1, Homo sapiens, UniProt P14921, residues 1-441, Y397A, full length assumed)
Technique: protein-binding microarray
Form: double-stranded DNA, one strand shown
Matrix: in vitro
Tested at: not given
Notes: k-mer, scored over probes, only values ≥0.25
Reading: higher = stronger binding
Construct (chain): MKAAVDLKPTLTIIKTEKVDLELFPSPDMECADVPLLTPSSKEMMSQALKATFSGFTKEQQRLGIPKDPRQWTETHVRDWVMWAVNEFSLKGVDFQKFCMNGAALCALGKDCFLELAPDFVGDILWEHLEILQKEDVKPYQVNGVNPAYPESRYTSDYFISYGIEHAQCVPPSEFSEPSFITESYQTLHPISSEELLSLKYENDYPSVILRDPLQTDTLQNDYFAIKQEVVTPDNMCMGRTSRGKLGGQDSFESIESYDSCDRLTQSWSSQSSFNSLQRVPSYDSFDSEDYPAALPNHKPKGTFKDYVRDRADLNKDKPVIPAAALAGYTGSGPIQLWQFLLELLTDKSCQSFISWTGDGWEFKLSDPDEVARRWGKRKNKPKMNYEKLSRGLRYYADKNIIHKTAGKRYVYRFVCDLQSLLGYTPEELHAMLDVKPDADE
Strand	E-score
ATTGGCAA	0.4
CCATATCC	0.262
ATGTCAAA	0.301
AGTTCCGG	0.281
AATACAAA	0.297
GCGCACAA	0.28
TGGCGGAA	0.297
AACTTCCG	0.473
GTAACACA	0.275
GACAACTC	0.294
CATCCGGA	0.269
ACAACACT	0.271
CAAACTTC	0.271
GTGGCAAA	0.364
CAAAACGC	0.323
ACGTCAAC	0.27
ACTTCCAC	0.285
GGGTGGGA	0.302
CGGATACA	0.294
ATGATACA	0.25
AGGAAATG	0.303
CTGTTTGC	0.324
ACGGATTG	0.252
GGCAAATA	0.375
CGACGTGC	0.256

Set 2
Target: Prothrombin, mature alpha-thrombin (F2, Homo sapiens, UniProt P00734)
Technique: aptamer microarray, sandwich
Form: DNA with 2'F-ANA
Matrix: in vitro
Tested at: 200 nM
Notes: whole 15-mer aptamer, many near background
Added: Cy3 exosite-II aptamer, 400 nM
Reading: higher = stronger binding
Strand: GGTTGGTGTGGTTGG
Modification	mean fluorescence intensity [a.u.]
2'F-ANA at 1 2 5 6 8 13 15	52.6
2'F-ANA at 1 7 10 11 14 15	45.7
2'F-ANA at 3 4 5 10 11 14	49.5
2'F-ANA at 1 3 5 6 11 13 15	59.3
2'F-ANA at 1 3 5 6 7 12 14 15	241
2'F-ANA at 2 4 6 7 9 10 11 15	72.6
2'F-ANA at 1 2 5 7 8 10 12 13 14	86.3
2'F-ANA at 2 3 4 7 10 13 14 15	176
2'F-ANA at 1 2 3 4 6 8 10 11 14	52.6
2'F-ANA at 7 8 10 11 13	146
2'F-ANA at 2 4 7 10 12 13 14 15	71.9
2'F-ANA at 5 6 7 8 10 11 13 15	45.8
2'F-ANA at 9 10 11 12	200
2'F-ANA at 1 2 5 6 7 8 9 10 11 13 14 15	52.9
2'F-ANA at 1 3 6 7 10 12	111
2'F-ANA at 2 3 4 8 11 13 15	484
2'F-ANA at 1 6 8 10 14 15	48.5
2'F-ANA at 4 5 10 12	52.4
2'F-ANA at 3 5 8 13	103

Set 3
Target: Ras GTPase-activating protein-binding protein 1, C-terminal RGG region (G3BP1, Homo sapiens, UniProt Q13283)
UniProt Q13283, sequence (whole entry, looked up): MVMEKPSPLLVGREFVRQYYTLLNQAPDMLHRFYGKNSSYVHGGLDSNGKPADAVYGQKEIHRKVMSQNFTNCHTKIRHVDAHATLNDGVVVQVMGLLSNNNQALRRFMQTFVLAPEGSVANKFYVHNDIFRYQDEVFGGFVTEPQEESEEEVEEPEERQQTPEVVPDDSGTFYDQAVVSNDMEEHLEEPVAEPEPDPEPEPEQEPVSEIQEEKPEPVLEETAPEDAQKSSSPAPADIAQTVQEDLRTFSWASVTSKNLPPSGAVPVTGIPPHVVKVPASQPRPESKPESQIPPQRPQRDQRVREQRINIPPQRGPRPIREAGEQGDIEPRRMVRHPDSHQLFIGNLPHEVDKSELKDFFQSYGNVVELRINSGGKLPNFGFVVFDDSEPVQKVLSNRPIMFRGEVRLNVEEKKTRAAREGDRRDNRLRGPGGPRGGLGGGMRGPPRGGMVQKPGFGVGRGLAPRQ
Technique: RNA Bind-n-Seq
Form: RNA
Matrix: in vitro
Tested at: 1 µM
Notes: whole 134-nt RNA, ends assumed
Added: 150 mM KCl
Baseline: input library
Reading: higher = stronger binding
All sequences stand within: GGGAGUUCUACAGUCCGACGAUC … UGGAAUUCUCGGGUGUCAAGG
Strand	log2 enrichment
GCAGGAAGUAAAAACAAAUGGAAUUGCUUCGGAUAGUGGCAGGGGUGGGGGUUGCUAAGGAAAGGGUGGGAUGGGAGUGGGUAAAGAGUU	1.9
UGGCCCUGGUGGCAUGCGGGGAGGAAGAGGUGGCCUCAUGGAUCGUGGUGGUCCCGGUUGAAUGUUCAGAGGUGGCCGUGGUGGAGACAG	1.71
GUGAAUCAAAAACUCUGGUUUUAAGCAACCUCUCCUACAGUGCAACAGAAGAAACUCUUCAGGAAGUAUUUGAGAAAGCAACUUUUAUCA	0.193
CCUGUGCUACACAUCGUAUGUACCGAAUCGGGGAAAAAAAGGGGAGGGGUUUUUUUGGGGAAAGUAUUAUGUUACGCCGUUCGGAUCUGC	0.839
CAAGUCCUGUGCUACACAUCGUAUGUACCGAAUCGGGAGGGUUUGGGAAAAAGGGAAAGUAUUAUGUUACGCCGUUCGGAUCUGCACUUC	1.44
CUGUGCUACACAUCGUAUGUACCGAAUCGGGCCCCCCCGGCCCCCCCGGGCCCCCCCGGGGAAAGUAUUAUGUUACGCCGUUCGGAUCUG	-2.03
UCCUGUGCUACACAUCGUAUGUACCGAAUCGGGCCCCCCGGCCCCCCGGGCCCCCCGGGAAAGUAUUAUGUUACGCCGUUCGGAUCUGCA	-1.13
CCUGUGCUACACAUCGUAUGUACCGAAUCGGGCCCCCCCGGCCCCCCCGGGCCCCCCCGGGAAAGUAUUAUGUUACGCCGUUCGGAUCUG	-1.51
AAGUCCUGUGCUACACAUCGUAUGUACCGAAUCGGGUGGGUUUUUGGGUUUUUGGGAAAGUAUUAUGUUACGCCGUUCGGAUCUGCACUU	-0.147

Set 4
Target: RNA binding protein fox-1 homolog 2, RRM domain, GST-SBP tag (RBFOX2, Homo sapiens, UniProt O43251-10, residues 100-194)
Technique: RNA Bind-n-Seq
Form: RNA
Matrix: in vitro
Tested at: 365 nM
Notes: natural RNA segment, single round, ends assumed
Baseline: no-protein control
Reading: higher = stronger binding
All sequences stand within: GGGAGUUCUACAGUCCGACGAUC … UGGAAUUCUCGGGUGCCAA
Target sequence (chain): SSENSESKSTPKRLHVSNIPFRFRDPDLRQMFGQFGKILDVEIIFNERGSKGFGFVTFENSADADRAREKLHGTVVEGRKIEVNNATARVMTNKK
Strand	RBNS enrichment (R)
UUAGAGUUGAUAAGGGUUUAUAUCUCAUCUGUCCAUAUUGUUUGCAAAGGAACAAGGUUUUAUGUAGGUGAGAGAAAGCAUUUGUACGAAGUUAGAUUUGAACAUAGAUA	0.467
ACACUCAAAGGCUGUGUGACUUGUCCUGUCCUGUGGCACCGAAGCCCUAGGUAGCUGGCUGUUUUGAUGAGGUCAUUUGAAUCAUGGGAGUGUCCUUACACUACACUAUC	0.502
GUGCGCUGGGCAGGAGGAAGGCAUGUGCUUCCUCCCCAGCCACCACCCCUCCCACAGCACCCAGCCUCACUACCCCAGCAUGGGGUACCCAGCUGGAUACUCCCAAAAUG	9.92
UAUAGCGGGUACCAGAGGAAAGCUGGCAGCAGUAACUCUCUCCCCAUGCAUCCUAGCCAGUGAGUGCUACAUCCUUUGCAAGUGGAGUUACUGGCCUACCCUUACCCCAU	0.934
GAUUUAUAGUCCAGAGAAUACUUCUUAAAGUUAGCAAAUGAAAUUAUUACAGAUUAUACGAGUGUACUGCUUUAAAGAUAUUCCAUCAUUUUGCUGGUAAUUUCAGUAAC	0.467
CUUCCUCCAUCUGAGAAGUGGCCCAUGUGCUUCAAGGCCCAGGAGGGAGAUCUGUCAGCUCAUUCUUGCCUUACUCCAAUGAUGGCCCAGGUGGAAAAGUAGCAGCUGUA	0.44
CAGCUACCACGGGUCUGCCAUGCUCUGGAGGAGCAAGGGGGCCACAUCCCCACCCCAGCUGUUACCCAGCCCGGGGCAGGUGCAGCCCUUCCUCCCUGUCUCUGCAUCUG	0.239
CCUCACCUCUGGACUGGCUAGAGUCCUCACUCCCAGUCCAAAUGUCCUCCAGAAGCCUCUGGCUAGAGGCCAGCCCCACCCAGGAGGGAGGGGGCUAUAGCUACAGGAAG	0.304

Some of these lines once more (set 1):
Strand	E-score
GACAACTC	0.294
CATCCGGA	0.269
ACAACACT	0.271
CAAACTTC	0.271
GTGGCAAA	0.364
CAAAACGC	0.323
ACGTCAAC	0.27
ACTTCCAC	0.285
GGGTGGGA	0.302
CGGATACA	0.294
